Experimental data pooled from the literature.
Every numbered part comes from another study and shows a few of its results, in no order. Positions count from the first letter of the parent shown.

Sample 1
Target: RNA binding protein fox-1 homolog 2, RRM domain, GST-SBP tag (RBFOX2, Homo sapiens, UniProt O43251-10, residues 100-194)
Method: RNA Bind-n-Seq
Form: RNA
Medium: in vitro
Concentration: 365 nM
Setting: natural RNA segment, single round, ends assumed
Reference: no-protein control
Direction: higher = stronger binding
Shared flanks, not repeated: GGGAGUUCUACAGUCCGACGAUC … UGGAAUUCUCGGGUGCCAA
Target sequence (chain): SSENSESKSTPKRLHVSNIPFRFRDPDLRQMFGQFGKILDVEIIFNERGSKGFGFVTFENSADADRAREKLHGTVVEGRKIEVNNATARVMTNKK
Sequence	RBNS enrichment (R)
AUUAAUCCUACUCCUUAAAGUGAUUUUUUUGGGAUUAUACAAAUUCCUUUUUAUAUAAAAGUAUAUUGUUUAAAACAGUAGCUAUAGCCAUUAACCAAAGGACAGAUGUG	0.595
AUGGUGAGCCUAGCCCUGGGACAUCAGGAGACUGGGCUCUGGCUCUGUUCGGCCUUUGGGUGUGUGGUGGAUUCUCCCUGGGCCUCAGUGUGCCCAUCUGUAAAGGGGCA	0.418
UCCUUUCACAGCCGGUCUCUCUGCCAGGAAAUGGGGGAAGGAACUAGAACCACCUGCACCUUGAGAUGUUUCUGUAAAUGGGUACUUGUGAUCACACUACGGGAAUCUCU	0.27
AGGGGACUUGUAGGAAUCUGCCUUCCAGCCCAGACCCCCAGUGUAUUUUGUCCAAGUUCACAGUAGAGUAGGGUAGAAGGAAAGCAUGUCUCUGCUUCCAUGGCUUCCUG	1.84
UUCUGGAAAGGUAGGUUUGCUGUGGAGGAAAUAAUGUACUAGAUCAUUGUCACAGAAAAACCAACUAUGAUUUAUGGUUGUGUUUUCAGAAUUCAACAUUAAAGAUUAAU	0.617
AGUGACAGUUUCUUUUGUGUUCCUAUGGAAACAUUUUAUACUGUACAUGCUAUGCUGAAGACAUUCAAAACGUGAUGUUUUGAAUGUGGAUAAAACUGUGUAAACCACAU	0.373
CUGAGUCCACAAACAGCUGUUAGAACCUAGACAGCAGCAUGACUGGCUCAGAGCUCUUGCCCAUGAGCAGAUGUUUACAAGAGAGGAAAAGAUUGCUUGCUACGACUGCA	9.69
CUCCAAAGAAAGCCAUGCUAAGACUGGGACCAGCCCCUCGUUAGCAUGUCUCCCUGCCACCUGUCACCCAGGAGCUUUGACAUUAUUUCUGCUGCCAUACUCCCCUAGAA	0.61
CAAAACUGUAGUUCCCAAAAGAAGAUGUGUCAGGGCAAGCAGAAAGGGAAGUUUAGGCCAGAAUGUGGCCAUCCCAGAAACUGAGGCCUCUCUCAGCCUCACCAGUGACA	1.64
GUCCACUAGAGGCCACUGUCUUCAAAGCUUCUCUCACCCUAGCCAAAGGUCCUAAGAGGAGACAGCUGUGAAGUUGGGCGUGCUCUGUGGUACCAGCUGUGACUUUUCUA	0.234
AUGGCCUCACCUGGCAGCCCUCUGGCCUAGUUCCCACCACACAUGAGGUGGUGGAAUGGCCUGAAGGUGGAACAGACCUGUUUUUUUCCUUUUUAAAUGCAGUAAGGUGG	0.297
GUCUGGAAAUAGGGCUGUCUGCUUAUGGAAAUGCCAUCUGUAGACCUUGAGAGUCAACUGUACAGAUGUUUGCAGGUGACUCCUGCUUGCCACCCACCCAUCAUAUUUGA	0.278

Sample 2
Target: CCNE1, cyclin fold, Cln2 fusion (human)
Method: yeast growth competition, sequencing
Medium: yeast
Setting: weak parent motif
Reference: not given
Direction: higher = stronger binding
Starting sequence: WEE1 docking peptide (human); HKTFRKLRLFDTP
Variant	normalised enrichment score
HKTFRKLRLFDTD [P13D]	0.693
HKTFRKPRLFDTP [L7P]	0.426
HKTFRVLRLFDTP [K6V]	0.102
HKTFPKLRLFDTP [R5P]	-0.0437
HKTFRKLRLVDTP [F10V]	-0.313
HKTFRKLRLFDTE [P13E]	-0.579
HKTFRKLRLFDEP [T12E]	1.19
HKTFRKLRLFDTT [P13T]	1.21
HKTFRKLRLFDTQ [P13Q]	-0.455
HKTARKLRLFDTP [F4A]	0.979
HKTFRTLRLFDTP [K6T]	0.343
HKTFRKLRDFDTP [L9D]	0.655
HKTFRKVRLFDTP [L7V]	-0.288
HKTFRHLRLFDTP [K6H]	0.43
HKTFRKQRLFDTP [L7Q]	0.727
HKHFRKLRLFDTP [T3H]	1.19
HKTKRKLRLFDTP [F4K]	0.387
HKTFRKLRLFDTA [P13A]	0.42

Sample 3
Target: FOS, bZIP domain (human)
Method: DHFR protein complementation
Medium: yeast
Setting: single substitutions, most at no-binding floor
Reference: wild-type JUN-FOS pair
Direction: higher = stronger binding
Starting sequence: JUN, bZIP domain (human); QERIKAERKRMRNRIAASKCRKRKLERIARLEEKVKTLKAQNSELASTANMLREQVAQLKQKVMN; partner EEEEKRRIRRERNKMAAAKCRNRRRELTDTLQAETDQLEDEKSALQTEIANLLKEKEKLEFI
Variant	binding fitness [natural log]
A46P	-1.22
L38Y	-1.28
L38N	-1.38
E33L	-0.131
A29M	-0.372
E32H	-0.226
L45S	-1.13
I28F	-0.275
N42G	-1.15
L52W	-1.22
L59W	-1.22
K39L	-0.714
A49D	-1.46
N42T	-0.109
Q55L	-0.146
R53G	-0.928
V35P	-1.21

Sample 4
Target: Prothrombin, mature alpha-thrombin (F2, Homo sapiens, UniProt P00734)
Method: aptamer microarray, sandwich
Form: DNA with 2'F-ANA
Medium: in vitro
Concentration: 200 nM
Setting: whole 15-mer aptamer, many near background
With: Cy3 exosite-II aptamer, 400 nM
Direction: higher = stronger binding
Sequence: GGTTGGTGTGGTTGG
Modification	mean fluorescence intensity
2'F-ANA at 3 6 8 10 11 12 13	511 a.u.
2'F-ANA at 1 2 5 7 9 11 15	50.5 a.u.
2'F-ANA at 1 2 3 4 6 7 9 10 12 15	71.9 a.u.
2'F-ANA at 2 3	966 a.u.
2'F-ANA at 5 7 9 12 13 15	105 a.u.
2'F-ANA at 1 2 3 5 6 9 10 11 13 14	53.7 a.u.
2'F-ANA at 2 3 5 7 8 9 10 11 15	53.1 a.u.
2'F-ANA at 3 4 8 9 11 15	585 a.u.
2'F-ANA at 2 3 6 11 12 14	410 a.u.
2'F-ANA at 1 2 4 5 6 8 10 11 13 14 15	75.3 a.u.
2'F-ANA at 4 9 11 13	169 a.u.
2'F-ANA at 4 8 12 13 14 15	120 a.u.
2'F-ANA at 1 3 4 5 8 10 12	51.7 a.u.
2'F-ANA at 1 3 4 5 8 9 11 12 13 14 15	53.8 a.u.
2'F-ANA at 1 2 10 12 13 14	51.7 a.u.
2'F-ANA at 1 5 8 9 11 12 13	75.7 a.u.
2'F-ANA at 1 2 3 6 8 10 12 14 15	53.2 a.u.
2'F-ANA at 3 6 10 11 14 15	367 a.u.

Sample 5
Target: ABI1, truncated, D143A, DHFR fusion (Arabidopsis thaliana)
Method: DHFR PCA, deep sequencing
Medium: yeast
Setting: methotrexate growth selection, single substitutions
With: (+)-ABA 0.0091 µM
Reference: wild-type fitted maximum
Direction: higher = stronger binding
Starting sequence: PYL1, truncated, DHFR fusion (Arabidopsis thaliana); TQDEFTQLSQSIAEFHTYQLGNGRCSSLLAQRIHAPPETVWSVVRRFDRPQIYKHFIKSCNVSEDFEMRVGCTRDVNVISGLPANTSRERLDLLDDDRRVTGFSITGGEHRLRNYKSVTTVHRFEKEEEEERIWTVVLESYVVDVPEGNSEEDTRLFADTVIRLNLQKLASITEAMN
Variant	relative binding score [%]
R98P	-1.57
L8K	-7.19
E89H	1.25
G108R	-3.57
V62C	-4.48
C60D	-0.68
E38Q	0.449
L29M	0.85
V78N	45.2
M176T	9.01
N177Q	32.6
G148D	3.32
L138Y	-1.9
T154P	-7.23
W41S	0.79
I79F	26
T1E	30.8
T17D	-3.07
E38H	-3.49
R155Y	0.404
V143C	43.7
E38I	2.92
L166E	-5.21

Single results of other studies
Molecule	target	assay	system	conditions	how to read	quantity	result
PhoQ, residues 284 288 289 292 302 303 SSCLAV	PhoP, residues 12 14 15 18 19 LHATL (Escherichia coli, UniProt P23836)	Sort-seq, measured: YFP reporter	E. coli	PhoQ-PhoP variant library, with: 10 µM Mg2+	reference: high Mg2+ state, higher = stronger signaling	fold induction	3.59

Repeated from above (sample 5):
Variant	relative binding score [%]
T1E	30.8
T17D	-3.07
E38H	-3.49
R155Y	0.404
V143C	43.7
E38I	2.92
